Results pooled from the literature.
Protocols differ between the studies behind these lines.
Sequence of UniProt Q9UBN7 (whole entry, looked up): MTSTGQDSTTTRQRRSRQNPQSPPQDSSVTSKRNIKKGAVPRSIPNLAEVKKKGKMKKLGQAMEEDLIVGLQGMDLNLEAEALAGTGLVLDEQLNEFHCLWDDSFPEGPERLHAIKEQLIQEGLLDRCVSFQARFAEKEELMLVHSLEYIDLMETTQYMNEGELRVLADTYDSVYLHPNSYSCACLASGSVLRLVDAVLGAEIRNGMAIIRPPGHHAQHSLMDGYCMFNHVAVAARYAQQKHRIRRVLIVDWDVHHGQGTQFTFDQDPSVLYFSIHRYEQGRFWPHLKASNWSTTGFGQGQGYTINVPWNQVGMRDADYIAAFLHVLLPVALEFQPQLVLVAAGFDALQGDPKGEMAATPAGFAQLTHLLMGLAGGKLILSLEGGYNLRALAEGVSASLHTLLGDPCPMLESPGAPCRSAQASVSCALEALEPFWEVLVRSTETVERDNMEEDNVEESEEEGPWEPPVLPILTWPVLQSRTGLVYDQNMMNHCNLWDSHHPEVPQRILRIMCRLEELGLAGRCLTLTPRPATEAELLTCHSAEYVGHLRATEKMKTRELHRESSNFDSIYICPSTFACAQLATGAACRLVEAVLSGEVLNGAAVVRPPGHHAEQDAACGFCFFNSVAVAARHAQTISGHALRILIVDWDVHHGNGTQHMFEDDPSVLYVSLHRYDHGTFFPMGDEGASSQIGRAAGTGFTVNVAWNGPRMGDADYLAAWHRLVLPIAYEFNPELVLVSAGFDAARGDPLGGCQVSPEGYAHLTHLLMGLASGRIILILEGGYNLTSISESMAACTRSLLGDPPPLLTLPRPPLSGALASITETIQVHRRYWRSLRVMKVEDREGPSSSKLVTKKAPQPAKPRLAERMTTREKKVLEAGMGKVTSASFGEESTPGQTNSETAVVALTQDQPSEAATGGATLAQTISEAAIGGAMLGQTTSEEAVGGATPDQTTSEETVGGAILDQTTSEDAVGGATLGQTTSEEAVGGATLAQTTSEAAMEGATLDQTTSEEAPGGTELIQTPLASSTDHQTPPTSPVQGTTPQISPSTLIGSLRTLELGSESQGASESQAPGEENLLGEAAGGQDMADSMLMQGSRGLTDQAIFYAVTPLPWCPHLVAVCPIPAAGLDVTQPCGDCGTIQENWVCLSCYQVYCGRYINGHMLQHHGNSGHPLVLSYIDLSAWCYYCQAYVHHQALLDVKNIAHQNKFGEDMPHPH
Sequence of UniProt Q92995 (whole entry, looked up): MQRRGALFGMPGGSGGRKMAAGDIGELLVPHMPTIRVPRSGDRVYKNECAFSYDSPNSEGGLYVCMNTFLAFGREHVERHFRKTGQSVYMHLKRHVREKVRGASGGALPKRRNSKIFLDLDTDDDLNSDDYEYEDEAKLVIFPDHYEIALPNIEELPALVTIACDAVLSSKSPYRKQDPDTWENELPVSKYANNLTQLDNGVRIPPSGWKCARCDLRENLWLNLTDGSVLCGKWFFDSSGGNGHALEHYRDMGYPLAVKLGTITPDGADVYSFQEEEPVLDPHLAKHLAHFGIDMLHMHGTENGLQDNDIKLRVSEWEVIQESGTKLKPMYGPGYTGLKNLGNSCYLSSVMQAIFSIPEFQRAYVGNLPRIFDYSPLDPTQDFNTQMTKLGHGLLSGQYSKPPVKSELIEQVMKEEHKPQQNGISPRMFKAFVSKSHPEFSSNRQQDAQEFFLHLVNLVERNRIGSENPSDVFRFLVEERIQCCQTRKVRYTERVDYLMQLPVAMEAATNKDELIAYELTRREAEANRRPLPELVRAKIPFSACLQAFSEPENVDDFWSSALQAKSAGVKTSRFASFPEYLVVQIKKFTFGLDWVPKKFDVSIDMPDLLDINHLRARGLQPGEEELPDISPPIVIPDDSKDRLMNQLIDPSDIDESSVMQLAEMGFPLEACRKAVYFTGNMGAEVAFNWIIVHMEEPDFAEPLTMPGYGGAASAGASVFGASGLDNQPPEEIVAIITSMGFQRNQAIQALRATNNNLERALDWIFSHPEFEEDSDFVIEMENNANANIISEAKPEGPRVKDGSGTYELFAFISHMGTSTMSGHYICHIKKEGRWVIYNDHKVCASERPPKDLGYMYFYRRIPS

SMILES	target or system	assay	test system	setting	how to read	quantity	value
CN(C)[C@@H]1C(O)=C(C(N)=O)C(=O)[C@@]2(O)C(O)=C3C(=O)c4c(O)cccc4[C@@](C)(O)[C@H]3C[C@@H]12	Acidovorax avenae		ATCC 19307			MIC	16 µg/mL
CC[C@H]1OC(=O)[C@H](C)[C@@H](O[C@H]2C[C@@](C)(OC)[C@@H](O)[C@H](C)O2)[C@H](C)[C@@H](O[C@@H]2O[C@H](C)C[C@H](N(C)C)[C@H]2O)[C@](C)(O)C[C@@H](C)CN(C)[C@H](C)[C@@H](O)[C@]1(C)O	Neisseria gonorrhoeae	broth microdilution	WHO M	1.5 h		MIC	1 µg/mL
O=C(O)CNC(=O)c1ccc(C(=O)N2CCC(c3ccc(Cl)cc3)CC2)cn1	Ubiquitin carboxyl-terminal hydrolase 13, ZnF-UBD domain (USP13, Homo sapiens, UniProt Q92995)					Kd	642 µM
FC(F)(F)Oc1ccc(OCCn2c(CNCC34CC5CC(CC(C5)C3)C4)nc3ccccc32)cc1	Enterobacter aerogenes		ATCC 35029			MIC	> 128 µg/mL
CC[C@H]1OC(=O)[C@H](C)[C@@H](O[C@H]2C[C@@](C)(OC)[C@@H](O)[C@H](C)O2)[C@H](C)[C@@H](O[C@@H]2O[C@H](C)C[C@H](N(C)C)[C@H]2O)[C@](C)(O)C[C@@H](C)CN(C)[C@H](C)[C@@H](O)[C@]1(C)O	Neisseria gonorrhoeae		ATCC 49226			MIC	0.25 µg/mL
c1ccc2[nH]c(CNCC34CC5CC(CC(C5)C3)C4)nc2c1	Enterobacter aerogenes		ATCC 35029			MIC	> 128 µg/mL
CCCCCOc1ccc(-c2ccc(-c3ccc(C(=O)N[C@H]4C[C@@H](O)[C@@H](OCC[N+](C)(C)C)NC(=O)[C@@H]5[C@@H](O)[C@@H](C)CN5C(=O)[C@H]([C@@H](C)O)NC(=O)[C@H]([C@H](O)[C@@H](O)c5ccc(O)cc5)NC(=O)[C@@H]5C[C@@H](O)CN5C(=O)[C@H]([C@@H](C)O)NC4=O)cc3)cc2)cc1	Candida glabrata	CLSI broth microdilution	10956			MIC	0.5 µg/mL
N=C(N)c1ccc(OCc2ccc(-c3ccccc3)cc2COc2ccc(C(=N)N)cc2)cc1	Escherichia coli		BW25113	in combination, lowest-FICI combination, added: vancomycin		MIC	100 µg/mL
CC[C@H](C)[C@H](NC(=O)[C@H](CCCCN)NC(=O)[C@H](CCC(=O)O)NC(=O)[C@H](CCCCN)NC(=O)[C@H](CO)NC(=O)[C@H](CCCCN)NC(=O)[C@H](CCCNC(=N)N)NC(=O)[C@H](Cc1ccccc1)NC(=O)[C@H](Cc1ccccc1)NC(=O)[C@H](CC(=O)O)NC(=O)CNC(=O)[C@H](CC(C)C)NC(=O)[C@@H](N)CC(C)C)C(=O)NCC(=O)N[C@@H](CCCCN)C(=O)N[C@@H](CCC(=O)O)C(=O)N[C@@H](Cc1ccccc1)C(=O)N[C@@H](CCCCN)C(=O)N[C@@H](CCCNC(=N)N)C(=O)N[C@H](C(=O)N[C@H](C(=O)N[C@@H](CCC(N)=O)C(=O)N[C@@H](CCCNC(=N)N)C(=O)N[C@H](C(=O)N[C@@H](CCCCN)C(=O)N[C@@H](CC(=O)O)C(=O)N[C@@H](Cc1ccccc1)C(=O)N[C@@H](CC(C)C)C(=O)N[C@@H](CCCNC(=N)N)C(=O)N[C@@H](CC(N)=O)C(=O)N[C@@H](CC(C)C)C(=O)N[C@H](C(=O)N1CCC[C@H]1C(=O)N[C@@H](CCCNC(=N)N)C(=O)N[C@H](C(=O)N[C@@H](CCC(=O)O)C(=O)N[C@@H](CO)C(=O)O)[C@@H](C)O)C(C)C)[C@@H](C)CC)C(C)C)[C@@H](C)CC	Micrococcus luteus	broth microdilution	ATCC 4698	43 h, 37 °C, cation-adjusted Mueller-Hinton broth		MIC	4 µg/mL
CC1(C)S[C@@H]2[C@H](NC(=O)Cc3ccccc3)C(=O)N2[C@H]1C(=O)O	Neisseria gonorrhoeae	broth microdilution	WHO G	1.5 h		MIC	16 µg/mL
CC[C@H]1OC(=O)[C@H](C)[C@@H](O[C@H]2C[C@@](C)(OC)[C@@H](O)[C@H](C)O2)[C@H](C)[C@@H](O[C@@H]2O[C@H](C)C[C@H](N(C)C)[C@H]2O)[C@](C)(O)C[C@@H](C)C(=O)[C@H](C)[C@@H](O)[C@]1(C)O	Streptococcus pyogenes	broth microdilution	8007			MIC	> 64 µg/mL
O=[N+]([O-])c1ccc2[nH]c(CNCC34CC5CC(CC(C5)C3)C4)nc2c1	Enterobacter aerogenes		ATCC 35029			MIC	> 128 µg/mL
CC1(C)S[C@@H]2[C@H](NC(=O)[C@H](N)c3ccccc3)C(=O)N2[C@H]1C(=O)O	Pseudomonas aeruginosa		clinical isolate RKI-No_597/16			MIC	> 16 µg/mL
CN[C@H](CC(C)C)C(=O)N[C@H]1C(=O)N[C@@H](CC(N)=O)C(=O)N[C@H]2C(=O)N[C@H]3C(=O)N[C@H](C(=O)N[C@H](C(=O)O)c4cc(O)cc(O)c4-c4cc3ccc4O)[C@H](O)c3ccc(c(Cl)c3)Oc3cc2cc(c3O[C@@H]2O[C@H](CO)[C@@H](O)[C@H](O)[C@H]2O[C@H]2C[C@](C)(N)[C@H](O)[C@H](C)O2)Oc2ccc(cc2Cl)[C@H]1O	Micrococcus luteus		ATCC 4698	43 h		MIC	0.5 µg/mL
CC1NC(=O)C(C(=O)NC(C(=O)NC2C(=O)N3C2SC(C)(C)C3C(=O)O)c2ccccc2)=C1O (centres unmarked)	Escherichia coli	broth microdilution	BW25113 wild type	18 h		MIC	100 µg/mL
CO/N=C(\C(=O)N[C@@H]1C(=O)N2C(C(=O)O)=C(CSc3nc(=O)c(O)nn3C)CS[C@H]12)c1csc(N)n1	Neisseria gonorrhoeae	broth microdilution	WHO N	1.5 h		MIC	1 µg/mL

SMILES	target or system	assay	test system	setting	how to read	quantity	value
N=C(N)c1cccc(OCc2ccc(COc3cccc(C(=N)N)c3)cc2)c1	Escherichia coli		BW25113	compound alone, rifampicin checkerboard		MIC	> 200 µg/mL
O=C(NC1CCCCC1)C(CCc1ccccc1)N(CCc1c[nH]cn1)C(=O)c1ccccc1 (centres unmarked)	Micrococcus luteus		DSM 1790			MIC	128 µM
CC[C@H](C)[C@H](NC(=O)[C@H](CCCCN)NC(=O)[C@H](CCC(=O)O)NC(=O)CNC(=O)CNC(=O)[C@H](CCCCN)NC(=O)[C@H](CCCNC(=N)N)NC(=O)[C@H](CC(C)C)NC(=O)[C@H](CC(C)C)NC(=O)CN)C(=O)NCC(=O)N[C@@H](CCC(=O)O)C(=O)N[C@@H](CCCCN)C(=O)N[C@@H](CC(C)C)C(=O)N[C@@H](CCCCN)C(=O)N[C@@H](CCCCN)C(=O)N[C@H](C(=O)NCC(=O)N[C@@H](CCC(N)=O)C(=O)N[C@@H](CCCCN)C(=O)N[C@H](C(=O)N[C@@H](CCCCN)C(=O)N[C@@H](CC(N)=O)C(=O)N[C@@H](Cc1ccccc1)C(=O)N[C@@H](Cc1ccccc1)C(=O)N[C@@H](CCC(N)=O)C(=O)N[C@@H](CCCCN)C(=O)N[C@@H](CC(C)C)C(=O)N[C@H](C(=O)N1CCC[C@H]1C(=O)N[C@@H](CCC(N)=O)C(=O)N1CCC[C@H]1C(=O)N[C@@H](CCC(=O)O)C(=O)N[C@@H](CCC(N)=O)C(=O)O)C(C)C)[C@@H](C)CC)[C@@H](C)CC	Micrococcus luteus	broth microdilution	ATCC 4698	43 h, 37 °C, cation-adjusted Mueller-Hinton broth		MIC	8 µg/mL
N=C(N)c1ccc(OCCC(CCOc2ccc(C(=N)N)cc2)c2ccccc2)cc1 (centres unmarked)	Escherichia coli		552100	in combination, checkerboard, added: rifampicin		MIC	12.5 µg/mL
C[C@H]1[C@H](NC(=O)/C(=N\OC(C)(C)C(=O)O)c2csc(N)n2)C(=O)N1S(=O)(=O)O	Enterobacter aerogenes	agar dilution	ATCC 13048 susceptible			MIC	0.125 µg/mL
CC1(C)SC2C(NC(=O)C(NC(=O)C3=C(O)CNC3=O)c3ccccc3)C(=O)N2C1C(=O)O (centres unmarked)	Escherichia coli	broth microdilution	BW25113 wild type	18 h		MIC	50 µg/mL
Cc1c(CN(C)C(=O)/C=C/c2cnc3c(c2)CCC(=O)N3)oc2ccccc12	Escherichia coli	broth microdilution	AR-0058			MIC	32 µg/mL
O=C(O)CCOc1ccccc1	Protein deacetylase HDAC6, ZnF-UBD domain (HDAC6, Homo sapiens, UniProt Q9UBN7)					Kd	> 1000 µM
CC(C)(C)Oc1ccc(CC2NC(=O)C(C(=O)NC(C(=O)NC3C(=O)N4C3SC(C)(C)C4C(=O)O)c3ccccc3)=C2O)cc1 (centres unmarked)	Escherichia coli	broth microdilution	ATCC 25922 wild type	added: clavulanic acid 6 µg/mL		MIC	25 µg/mL
Cc1cc(-c2cn[nH]c2-c2cccc(OCc3cccc(C#N)c3)c2)cc(C)n1	Salmonella Typhimurium	broth microdilution	ATCC 14028			MIC	1 µg/mL
OC(Cn1cncn1)(Cn1cncn1)c1ccc(F)cc1F	Candidozyma auris	inhibitor	280	24 h		MIC	128 µg/mL
CC1(C)SC2C(NC(=O)C(NC(=O)C3=C(O)C(Cc4ccco4)NC3=O)c3ccccc3)C(=O)N2C1C(=O)O (centres unmarked)	Escherichia coli	broth microdilution	BW25113 wild type	18 h		MIC	6.25 µg/mL
NC[C@H]1O[C@H](O[C@H]2[C@H](O)[C@@H](O[C@H]3O[C@H](CO)[C@@H](O)[C@H](N)[C@H]3O)[C@H](N)C[C@@H]2N)[C@H](O)[C@@H](O)[C@@H]1O	Micrococcus luteus	broth microdilution	ATCC 4698	43 h, 37 °C, cation-adjusted Mueller-Hinton broth		MIC	2 µg/mL
c1ccc(OCCn2c(CNC34CC5CC(CC(C5)C3)C4)nc3ccccc32)cc1	Enterobacter aerogenes		ATCC 35029			MIC	> 128 µg/mL
CC(C)C1NC(=O)C(C(=O)NC(C(=O)NC2C(=O)N3C2SC(C)(C)C3C(=O)O)c2ccccc2)=C1O (centres unmarked)	Escherichia coli	broth microdilution	ATCC 25922 wild type	no clavulanic acid		MIC	12.5 µg/mL
Cn1cc(-c2ccc(-c3cncc(Cl)c3N3CCC4(CCNC4=O)CC3)cc2)cn1	COLO 205	gene expression, microarray, refers to: DPP4 mRNA		concentration not given, 2 h	relative to: untreated cells	log2 fold change	2.18

A few entries again:
SMILES	target or system	assay	test system	setting	how to read	quantity	value
Cc1c(CN(C)C(=O)/C=C/c2cnc3c(c2)CCC(=O)N3)oc2ccccc12	Escherichia coli	broth microdilution	AR-0058			MIC	32 µg/mL
O=C(O)CCOc1ccccc1	Protein deacetylase HDAC6, ZnF-UBD domain (HDAC6, Homo sapiens, UniProt Q9UBN7)					Kd	> 1000 µM
CC(C)(C)Oc1ccc(CC2NC(=O)C(C(=O)NC(C(=O)NC3C(=O)N4C3SC(C)(C)C4C(=O)O)c3ccccc3)=C2O)cc1 (centres unmarked)	Escherichia coli	broth microdilution	ATCC 25922 wild type	added: clavulanic acid 6 µg/mL		MIC	25 µg/mL
Cc1cc(-c2cn[nH]c2-c2cccc(OCc3cccc(C#N)c3)c2)cc(C)n1	Salmonella Typhimurium	broth microdilution	ATCC 14028			MIC	1 µg/mL
OC(Cn1cncn1)(Cn1cncn1)c1ccc(F)cc1F	Candidozyma auris	inhibitor	280	24 h		MIC	128 µg/mL
